{"data": "Results of several laboratories", "note": "Numbered parts are unrelated; each lists some results of a single study."}
{"data": "Study 1", "target": "Histone acetyltransferase KAT6A, winged helix 1, GST fusion (KAT6A, Homo sapiens, UniProt Q92794, residues 1-85)", "method": "protein binding microarray", "form": "double-stranded DNA, one strand shown", "matrix": "in vitro", "concentration": "not given", "setting": "8-mer, flanks averaged, mean of 2 arrays, mostly near background", "relative to": "not given", "direction": "higher = stronger binding", "Residues (chain)": "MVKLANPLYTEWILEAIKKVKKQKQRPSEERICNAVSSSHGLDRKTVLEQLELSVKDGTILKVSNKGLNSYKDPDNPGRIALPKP"}
{"Strand": "CTATTGCA", "E-score": -0.144}
{"Strand": "ATCATTCG", "E-score": -0.143}
{"Strand": "AGACGATG", "E-score": -0.0207}
{"Strand": "AGTACTTA", "E-score": -0.0184}
{"Strand": "AGAATTAA", "E-score": -0.201}
{"Strand": "CAGCTGGG", "E-score": -0.197}
{"Strand": "TACACTGA", "E-score": -0.0995}
{"data": "Study 2", "target": "Fragile X messenger ribonucleoprotein 1, C-terminal low-complexity region (Fmr1, Mus musculus, UniProt P35922)", "method": "RNA Bind-n-Seq", "form": "RNA", "matrix": "in vitro", "concentration": "200 nM", "setting": "whole 134-nt RNA, ends assumed", "added": "150 mM LiCl", "relative to": "input library", "direction": "higher = stronger binding", "all molecules": "7-deaza-guanosine replaces G", "all sequences stand within": "GGGAGUUCUACAGUCCGACGAUC … UGGAAUUCUCGGGUGUCAAGG"}
{"Strand": "UCAAGUCCUGUGCUACACAUCGUAUGUACCGAAUCGGGCCGGGGCCGGGCCGGGAAAGUAUUAUGUUACGCCGUUCGGAUCUGCACUUCC", "log2 enrichment": 0.262}
{"Strand": "CAAGUCCUGUGCUACACAUCGUAUGUACCGAAUCGGGCCCGGGGCCCGGGGCCCGGAAAGUAUUAUGUUACGCCGUUCGGAUCUGCACUU", "log2 enrichment": -2.42}
{"Strand": "UUGCUUCAAGAAGAUCCCUAAGCUGUAGAACAUUUUAACGUUGAUGCCACAACGCAGAUUGAUGCCUUGUAGAUGGAGCUUGCAGAUGGA", "log2 enrichment": 1.35}
{"Strand": "UCCUGUGCUACACAUCGUAUGUACCGAAUCGGGGAAAAAGGGGAAAAAAAGGGGAGGGGAAAGUAUUAUGUUACGCCGUUCGGAUCUGCA", "log2 enrichment": 0.0793}
{"Strand": "UAACUUUAGAGGAGGAUCUGAUGGAUAUGGCAGUGGACGUGGAUUUGGGGAUGGCUAUAAUGGGUAUAGAGGAGGACCUGGAGGUGGCAA", "log2 enrichment": 0.268}
{"Strand": "CCUCAAGUCCUGUGCUACACAUCGUAUGUACCGAAUCGGAGGAAAAAGGUGGAAAGUAUUAUGUUACGCCGUUCGGAUCUGCACUUCCAG", "log2 enrichment": -0.663}
{"Strand": "UAACUUUAGAGGAUGAUCUGAUGGAUAUGGCAGUGGACGUGGAUUUGGGGAUGGCUAUAAUGGGUAUGGAGGAGGACCUGGAGGUGGCAA", "log2 enrichment": 0.45}
{"data": "Single results of other studies"}
{"Substance": "EDLLKELQKQLEE", "target or system": "Saccharomyces cerevisiae", "assay": "binding, competitive growth deep sequencing", "system": "peptide, cyclin D3-Cln2 fusion strain", "setting": "concentration not given, Cln2 score subtracted", "how to read": "direction not given", "quantity": "growth enrichment score", "value": -0.101}
{"Substance": "PhoQ, residues 284 288 289 292 302 303 GLASVI", "target or system": "PhoP, residues 12 14 15 18 19 SMASL (Escherichia coli, UniProt P23836)", "assay": "Sort-seq, measured: YFP reporter", "system": "E. coli", "setting": "PhoQ-PhoP variant library, added: 10 µM Mg2+", "how to read": "relative to: high Mg2+ state, higher = stronger signaling", "quantity": "fold induction", "value": 4.75}
{"Substance": "MDASRQLMLNEEQ", "target or system": "Saccharomyces cerevisiae", "assay": "binding, competitive growth deep sequencing", "system": "peptide, cyclin D3-Cln2 fusion strain", "setting": "concentration not given, Cln2 score subtracted", "how to read": "direction not given", "quantity": "growth enrichment score", "value": 0.139}
{"note": "Excerpt of the above (study 1):"}
{"Strand": "TACACTGA", "E-score": -0.0995}
